Experimental data gathered from unrelated publications.
Each numbered part is a random draw from the data of one study; scales do not carry over between parts. Positions count from the first letter of the parent shown.

Block 1 — method: universal PBM; form: double-stranded DNA, one strand shown; medium: in vitro; tested at: not given; reading: higher = stronger binding; measurement: E-score
Target: Sal-like protein 4, full length isoform B (SALL4, Homo sapiens, UniProt Q9UJQ4-2, residues 1-616)
Notes: 8-mer, flanks averaged, mean of replicates
CACTAATC: 0.0778
GAGTATTA: 0.289
CGCGCGCA: -0.302
GAATGGCA: -0.00104
AGCGAACA: 0.0004
CCGGAATA: -0.00537
ATCTGAGC: 0.0593
GACAGCGA: -0.209
CGGAGGCC: -0.415
TAAGATGA: 0.108
ACTCCGAC: -0.235
ACGCCTCT: -0.0832
AACCAAGA: 0.125
ATAAATGG: 0.293
GAGGCGAC: -0.213
GATAAACA: 0.2
AGAGCGCC: -0.24
GGAGATCA: -0.15
TCCGCCGA: -0.215
GACGGAGC: -0.276
GAAACCAC: -0.144
CTACCTTA: 0.0177
CCACTTCG: -0.178
ATGATACG: 0.26
ACTTTTTC: 0.148

Block 2 — method: protein-binding microarray; form: double-stranded DNA, one strand shown; medium: in vitro; tested at: 2200 nM top; notes: 60-bp whole probe; added: salmon DNA 0.4 mg/ml; baseline: random background probes; reading: higher = stronger binding; measurement: fitted relative affinity; constant ends, left off below: GCCTAGCAC … GTCTTGATTCGCTTGACGCTGCTG
Target: Interferon regulatory factor 7, full length, phosphomimetic (IRF7, Homo sapiens, UniProt Q92985, residues 1-503, S471D/S472D/S475D/S476D/S477D/S483D/S484D/S487D)
Sequence of UniProt Q92985 (whole entry, unmodified, looked up): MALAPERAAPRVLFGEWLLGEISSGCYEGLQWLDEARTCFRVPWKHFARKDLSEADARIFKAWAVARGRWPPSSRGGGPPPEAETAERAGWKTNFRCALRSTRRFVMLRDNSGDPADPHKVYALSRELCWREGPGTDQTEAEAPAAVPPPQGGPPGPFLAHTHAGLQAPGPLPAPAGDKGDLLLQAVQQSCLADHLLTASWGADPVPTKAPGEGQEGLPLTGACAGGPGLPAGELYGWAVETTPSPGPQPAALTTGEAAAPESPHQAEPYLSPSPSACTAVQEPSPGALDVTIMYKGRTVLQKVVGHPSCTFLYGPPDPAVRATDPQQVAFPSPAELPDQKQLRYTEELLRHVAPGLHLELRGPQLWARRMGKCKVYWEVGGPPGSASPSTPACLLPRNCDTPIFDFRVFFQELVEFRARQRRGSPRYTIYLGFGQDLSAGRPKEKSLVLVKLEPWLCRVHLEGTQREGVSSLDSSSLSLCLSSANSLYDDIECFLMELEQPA
GACGAACTGCGGACTGGAGACGTGCTA: -0.304 z-score
TCAGTTTTCATTTTATGACTGTGCTAG: 5.01 z-score
GACGGTATCGGGTACCGGGACGTGCTA: -0.179 z-score
CTAGGTTCCGGTTTCGGTTAGTGCTAG: 8.45 z-score
TTAGAACTGCTACTGCTTTAGTGCTAG: -0.349 z-score
GACGGTTTCGACTATCGTGACGTGCTA: 3.26 z-score
GACGACTTCAGTATCGAGACGTGCTAG: 0.205 z-score
GACGGTTTCCTACTGGTGACGTGCTAG: 1.6 z-score
TTAGGTTTCGACTTTCGGTCAGTGCTA: 7.78 z-score
GACGGTTTCCTTTTACTGACGTGCTAG: 5.57 z-score
GACGGTCTCGGCTTCGGGACGTGCTAG: -0.271 z-score
TTAGATTTCGGGTACCGATTAGTGCTA: 2.42 z-score
GACGGTCTCGGTATCGGGTCGTGCTAG: 0.651 z-score
GACGATATCGGGTTTCCAGACGTGCTA: 0.809 z-score
TTAGATTTCGGCACTGGATTAGTGCTA: 0.237 z-score
TTAGATATCGTGTTTCGATTAGTGCTA: 2.77 z-score
GACGGACTGCCTCTCCTGACGTGCTAG: 0.341 z-score
GACGATCTCAGTTTGGAGACGTGCTAG: 0.119 z-score
GACGATTTCGGGTATCGAGAAGTGCTA: 2.73 z-score

Block 3 — target: CCNA1, cyclin fold, Cln2 fusion (human); method: yeast growth competition, sequencing; medium: yeast; notes: weak parent motif; baseline: not given; reading: higher = stronger binding; measurement: normalised enrichment score
Parent: E2F1 docking peptide (human); PPVKRRLDLETDH; partner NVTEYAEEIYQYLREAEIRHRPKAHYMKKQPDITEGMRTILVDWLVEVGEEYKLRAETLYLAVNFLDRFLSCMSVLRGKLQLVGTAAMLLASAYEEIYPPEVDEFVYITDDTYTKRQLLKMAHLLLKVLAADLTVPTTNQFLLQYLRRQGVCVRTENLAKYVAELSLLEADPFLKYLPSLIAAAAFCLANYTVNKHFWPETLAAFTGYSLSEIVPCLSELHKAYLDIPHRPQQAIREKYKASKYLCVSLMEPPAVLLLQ
PPDKRRLDLETDH [V3D]: 0.189
PPVMRRLDLETDH [K4M]: 0.521
QPVKRRLDLETDH [P1Q]: 0.469
PPVKRRLNLETDH [D8N]: 0.762
PIVKRRLDLETDH [P2I]: 0.147
PPVKRRLDLECDH [T11C]: 0.386
PPVKRRLPLETDH [D8P]: 0.238
PCVKRRLDLETDH [P2C]: 0.502
PPVKRTLDLETDH [R6T]: 0.556
PPVKVRLDLETDH [R5V]: -0.201
PPVKRRLDLETGH [D12G]: 0.41
PPVKRRLDLETDV [H13V]: 0.664
PPVKRRWDLETDH [L7W]: 0.339
PPVKRRADLETDH [L7A]: 0.216
PPVKPRLDLETDH [R5P]: -0.149
PPSKRRLDLETDH [V3S]: 0.533
PVVKRRLDLETDH [P2V]: 0.325
PPVKRRLDLETCH [D12C]: 0.53
PPVKRRDDLETDH [L7D]: 0.187
PPVKRWLDLETDH [R6W]: 0.437
APVKRRLDLETDH [P1A]: 0.552
PPVKRRLDLETNH [D12N]: 0.325

Further values, each from its own experiment
PhoQ, residues 284 288 289 292 302 303 SACGEM
fold induction (PhoP, residues 12 14 15 18 19 AWHSL (Escherichia coli, UniProt P23836); Sort-seq, refers to: YFP reporter; E. coli; PhoQ-PhoP variant library, added: 10 µM Mg2+; baseline: high Mg2+ state, higher = stronger signaling): 4.18

For quick reference, copied from above (block 1):
CGCGCGCA: -0.302
GAATGGCA: -0.00104
AGCGAACA: 0.0004
CCGGAATA: -0.00537
ATCTGAGC: 0.0593
GACAGCGA: -0.209
CGGAGGCC: -0.415
